Experimental data from different studies.
Protocols differ between the studies behind these lines. ± gives the spread as reported.

CNC(=O)c1ccc(-c2cnn3ccc(C(=O)N(C)c4ccc(Cl)c(C(=O)OC)c4)cc23)cc1
Cmax (Wistar rat, both sexes, plasma; oral, 50 mg/kg/day, day 14): 1.02 ng/mL

C[C@H]1CNCCc2ccc(Cl)cc21
Cmax (male Sprague-Dawley rat, plasma; subcutaneous, pimavanserin 1 + lorcaserin 1 mg/kg, pimavanserin 15 min earlier): 26.6 ± 1.69 ng/mL

COc1ccc2c(c1)[C@]13CCCC[C@@H]1[C@H](C2)N(C)CC3
Cmax (refers to: HHMA; rat, plasma; intraperitoneal, 30 mg/kg, three doses, together with: MDMA 20 mg/kg oral; relative to: MDMA with saline): decreased

CN1CC[C@@]23CCCC[C@@H]2[C@@H]1Cc1ccc(O)cc13
Cmax (Wistar rat, both sexes, plasma; oral, 5 mg/kg DEM, DEM 2 h after pretreatment, together with: QN 2.5 mg/kg single pretreatment): 22.1 ± 6.01 ng/mL

Cc1cccc(C)c1OCC(=O)N[C@@H](Cc1ccccc1)[C@@H](O)C[C@H](Cc1ccccc1)NC(=O)[C@H](C(C)C)N1CCCNC1=O
Cmax (male Sprague-Dawley rats, plasma; oral, 160 mg/kg, together with: QPD 6 g/kg oral, 30 min before): 1190 ng/mL

CCCC(=O)OCSc1ccccc1C(=O)NCCC(N)=O
Cmax (Sprague-Dawley rat, male, plasma; oral, 1000 mg/kg): 38.2 ± 50 ng/mL

NC1(c2ccccc2Cl)CCCCC1=O (racemic)
Cmax (male Wistar rats, plasma; intraperitoneal, 40 mg/kg once daily for 14 days, day 14): 2050 ± 678 ng/mL

CCCCCCCCCC(=O)N[C@@H](Cc1c[nH]c2ccccc12)C(=O)N[C@H](CC(N)=O)C(=O)N[C@@H](CC(=O)O)C(=O)N[C@@H]1C(=O)NCC(=O)N[C@@H](CCCN)C(=O)N[C@@H](CC(=O)O)C(=O)N[C@H](C)C(=O)N[C@@H](CC(=O)O)C(=O)NCC(=O)N[C@H](CO)C(=O)N[C@@H]([C@H](C)CC(=O)O)C(=O)N[C@@H](CC(=O)c2ccccc2N)C(=O)O[C@@H]1C
Cmax (HPLC-UV; male Wistar rat, skin tissue of head; subcutaneous, 50 mg/kg, single dose): 20100 ± 2200 ng/mL
